Measurements from different studies.
Protocols differ between the studies behind these lines. ± marks the error that the study gave.
gpmI: gpmI (Escherichia coli, UniProt P37689)
Chain of UniProt P37689 (whole entry, looked up): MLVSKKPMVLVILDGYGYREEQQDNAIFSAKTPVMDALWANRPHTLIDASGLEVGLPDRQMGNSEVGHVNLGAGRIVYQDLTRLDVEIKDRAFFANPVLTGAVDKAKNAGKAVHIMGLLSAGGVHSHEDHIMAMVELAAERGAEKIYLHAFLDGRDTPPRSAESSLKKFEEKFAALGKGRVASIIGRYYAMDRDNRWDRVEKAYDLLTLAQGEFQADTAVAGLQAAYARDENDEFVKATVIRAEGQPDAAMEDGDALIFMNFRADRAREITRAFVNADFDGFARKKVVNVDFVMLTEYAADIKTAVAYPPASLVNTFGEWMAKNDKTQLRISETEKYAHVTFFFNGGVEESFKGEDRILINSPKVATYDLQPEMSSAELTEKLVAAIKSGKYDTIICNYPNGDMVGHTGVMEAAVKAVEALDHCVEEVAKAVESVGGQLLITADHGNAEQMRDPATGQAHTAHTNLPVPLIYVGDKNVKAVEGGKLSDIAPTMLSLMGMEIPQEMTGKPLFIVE
ipgm-1: ipgm-1 (Brugia malayi, UniProt Q4VWF8)
Chain of UniProt Q4VWF8 (whole entry, looked up): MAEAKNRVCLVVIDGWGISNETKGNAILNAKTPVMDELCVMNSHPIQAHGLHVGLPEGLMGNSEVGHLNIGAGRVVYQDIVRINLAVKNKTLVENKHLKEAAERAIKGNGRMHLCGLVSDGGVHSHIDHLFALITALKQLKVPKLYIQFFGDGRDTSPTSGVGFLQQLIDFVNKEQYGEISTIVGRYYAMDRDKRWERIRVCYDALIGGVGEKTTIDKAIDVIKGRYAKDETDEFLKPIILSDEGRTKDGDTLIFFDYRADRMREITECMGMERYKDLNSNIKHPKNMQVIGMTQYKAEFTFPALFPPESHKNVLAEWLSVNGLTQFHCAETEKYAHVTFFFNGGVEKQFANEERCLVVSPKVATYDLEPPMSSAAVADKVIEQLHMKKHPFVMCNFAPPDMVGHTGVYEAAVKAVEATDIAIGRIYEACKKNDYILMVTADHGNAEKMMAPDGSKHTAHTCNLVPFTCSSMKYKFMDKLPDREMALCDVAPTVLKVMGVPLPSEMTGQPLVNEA
Chain of UniProt P48546 (whole entry, looked up): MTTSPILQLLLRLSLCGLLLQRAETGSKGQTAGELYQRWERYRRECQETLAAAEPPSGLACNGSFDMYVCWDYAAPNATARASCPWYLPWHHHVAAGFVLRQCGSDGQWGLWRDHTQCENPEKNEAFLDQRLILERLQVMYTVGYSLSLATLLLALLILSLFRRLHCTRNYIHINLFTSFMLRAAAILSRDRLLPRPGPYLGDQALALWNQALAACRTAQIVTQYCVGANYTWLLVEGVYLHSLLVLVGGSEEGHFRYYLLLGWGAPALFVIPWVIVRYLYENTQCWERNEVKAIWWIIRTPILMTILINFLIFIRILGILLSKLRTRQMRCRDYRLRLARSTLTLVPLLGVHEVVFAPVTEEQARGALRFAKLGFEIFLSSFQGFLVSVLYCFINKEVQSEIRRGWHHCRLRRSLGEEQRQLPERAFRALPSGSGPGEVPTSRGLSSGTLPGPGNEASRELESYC
Chain of UniProt P23977 (whole entry, looked up): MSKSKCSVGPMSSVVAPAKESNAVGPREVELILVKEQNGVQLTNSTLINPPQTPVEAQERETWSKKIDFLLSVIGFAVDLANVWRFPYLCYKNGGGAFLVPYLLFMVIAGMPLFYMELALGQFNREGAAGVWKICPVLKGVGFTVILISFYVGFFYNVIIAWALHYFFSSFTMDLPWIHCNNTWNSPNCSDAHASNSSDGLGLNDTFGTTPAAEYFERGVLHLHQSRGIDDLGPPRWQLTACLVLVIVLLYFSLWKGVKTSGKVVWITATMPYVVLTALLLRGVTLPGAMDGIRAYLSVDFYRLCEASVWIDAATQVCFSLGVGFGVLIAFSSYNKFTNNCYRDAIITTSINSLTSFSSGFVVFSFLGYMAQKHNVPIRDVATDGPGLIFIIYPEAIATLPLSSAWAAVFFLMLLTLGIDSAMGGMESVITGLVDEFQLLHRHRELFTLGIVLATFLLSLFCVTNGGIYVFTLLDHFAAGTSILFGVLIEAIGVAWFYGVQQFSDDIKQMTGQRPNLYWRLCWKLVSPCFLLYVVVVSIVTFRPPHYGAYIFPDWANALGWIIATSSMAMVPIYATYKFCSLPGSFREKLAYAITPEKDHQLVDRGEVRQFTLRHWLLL
Chain of UniProt P05177 (whole entry, looked up): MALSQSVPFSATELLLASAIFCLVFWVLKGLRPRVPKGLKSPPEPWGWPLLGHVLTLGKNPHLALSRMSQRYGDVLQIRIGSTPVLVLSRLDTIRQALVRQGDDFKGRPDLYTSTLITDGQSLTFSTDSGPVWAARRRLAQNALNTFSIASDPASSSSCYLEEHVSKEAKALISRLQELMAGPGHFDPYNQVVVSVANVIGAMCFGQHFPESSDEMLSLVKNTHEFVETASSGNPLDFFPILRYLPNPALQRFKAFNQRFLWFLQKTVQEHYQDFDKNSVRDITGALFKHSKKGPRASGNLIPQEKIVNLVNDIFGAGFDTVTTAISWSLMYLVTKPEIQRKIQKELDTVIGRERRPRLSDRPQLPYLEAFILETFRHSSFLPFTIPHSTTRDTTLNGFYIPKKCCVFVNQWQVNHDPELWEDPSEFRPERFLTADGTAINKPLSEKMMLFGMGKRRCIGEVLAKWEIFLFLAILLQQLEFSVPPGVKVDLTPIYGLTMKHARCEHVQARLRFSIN
Chain of UniProt P21554 (whole entry, unmodified, looked up): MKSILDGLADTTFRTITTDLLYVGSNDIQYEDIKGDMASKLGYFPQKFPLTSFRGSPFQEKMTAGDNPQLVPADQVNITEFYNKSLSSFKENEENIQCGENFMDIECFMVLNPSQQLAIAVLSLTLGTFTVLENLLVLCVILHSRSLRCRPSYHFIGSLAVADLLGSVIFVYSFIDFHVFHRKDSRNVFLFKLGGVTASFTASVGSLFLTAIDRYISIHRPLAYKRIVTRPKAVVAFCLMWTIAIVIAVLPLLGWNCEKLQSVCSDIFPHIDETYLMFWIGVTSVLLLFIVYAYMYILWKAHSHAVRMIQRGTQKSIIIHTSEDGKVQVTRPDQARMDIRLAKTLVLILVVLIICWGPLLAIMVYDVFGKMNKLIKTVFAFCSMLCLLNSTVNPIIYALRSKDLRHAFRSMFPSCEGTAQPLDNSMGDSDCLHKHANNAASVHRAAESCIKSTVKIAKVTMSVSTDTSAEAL
Chain of UniProt P41144 (whole entry, looked up): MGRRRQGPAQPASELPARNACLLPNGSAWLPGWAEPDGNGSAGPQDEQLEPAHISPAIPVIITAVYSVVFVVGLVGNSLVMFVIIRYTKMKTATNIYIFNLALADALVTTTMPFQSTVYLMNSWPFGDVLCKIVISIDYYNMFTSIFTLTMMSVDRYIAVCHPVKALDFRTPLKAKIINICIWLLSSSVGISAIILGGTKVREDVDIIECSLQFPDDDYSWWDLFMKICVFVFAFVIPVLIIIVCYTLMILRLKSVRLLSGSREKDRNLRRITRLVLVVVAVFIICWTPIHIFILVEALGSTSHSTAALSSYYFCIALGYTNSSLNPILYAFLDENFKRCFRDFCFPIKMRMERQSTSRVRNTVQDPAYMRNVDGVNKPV
Chain of UniProt P28221 (whole entry, looked up): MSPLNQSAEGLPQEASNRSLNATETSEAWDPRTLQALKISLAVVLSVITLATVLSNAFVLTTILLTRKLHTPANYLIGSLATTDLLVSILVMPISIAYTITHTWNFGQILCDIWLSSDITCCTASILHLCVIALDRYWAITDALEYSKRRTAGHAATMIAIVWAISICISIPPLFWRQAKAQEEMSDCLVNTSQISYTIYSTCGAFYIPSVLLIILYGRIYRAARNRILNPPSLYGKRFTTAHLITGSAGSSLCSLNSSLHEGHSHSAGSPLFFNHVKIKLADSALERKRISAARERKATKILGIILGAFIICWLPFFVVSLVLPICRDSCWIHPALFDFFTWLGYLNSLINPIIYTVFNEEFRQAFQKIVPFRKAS

Compound | target or system | assay | system | setting | quantity | value
CCCCCc1cc(O)c2c(c1)OC(C)(C)C1CCC(C)=CC21 (single isomer, unassigned; (-)) | Cytochrome P450 1A2 (CYP1A2, Homo sapiens, UniProt P05177) | enzyme activity, inhibitor | microsomes from HEK293 cells | pH 7.4, unbound, fu,inc corrected, added: phenacetin | Ki | 90 ± 27 nM
CN1C(=O)[C@H](CCC(=O)O)NC(=O)[C@H](Cc2ccc(O)cc2)NC(=O)[C@H](CCCNC(=N)N)NC(=O)[C@@H](Cc2ccc(O)cc2)NC(=O)CSC[C@@H](C(N)=O)NC(=O)[C@H](CCCCN)NC(=O)[C@@H]2CCCN2C(=O)[C@H](CS)NC(=O)[C@H](CCC(=O)O)NC(=O)[C@H](Cc2ccc(O)cc2)N(C)C(=O)[C@H](CCCCN)NC(=O)[C@H](Cc2ccc(O)cc2)NC(=O)[C@@H]1Cc1ccc(O)cc1 | gpmI | enzyme activity, inhibitor, luminescent coupled-enzyme ATP |  | 15 min, 37 °C | AC50 | 18.6 µM
CCC[C@@H](C(=O)c1ccccc1)N1CCCC1 | Slc6a3 (Rattus norvegicus, UniProt P23977) | transporter uptake, inhibitor, radiometric |  |  | IC50 | 6.9 nM
O=C(Nn1c(-c2cccc(Cl)c2)nc2ccccc2c1=O)c1ccccc1 | TRPM channel TRPM_PZQ (Schistosoma japonicum, UniProt A0A4Z2DYB8) |  |  |  | EC50 | 470 ± 50 nM
Cc1cc(O)cc(C)c1C[C@@H]1NC(=O)[C@H](CCCCN)NC(=O)[C@H](Cc2ccccc2)NC(=O)[C@@H](CCCNC(N)=O)NC1=O | OPRK1 (Cavia porcellus, UniProt P41144) | antagonist |  |  | Kb | 307 ± 29 nM
CCC[N+](C)(C)CCc1c[nH]c2cccc(O)c12 | HTR1D (Homo sapiens, UniProt P28221) | ligand displacement, radioligand |  |  | Ki | 2400 nM
CC[C@H](C)[C@H](NC(=O)[C@H](CO)NC(=O)[C@H](Cc1ccc(O)cc1)NC(=O)[C@H](CC(=O)O)NC(=O)[C@H](CO)NC(=O)[C@@H](NC(=O)[C@H](Cc1ccccc1)NC(=O)[C@@H](NC(=O)CNC(=O)[C@@H](N)CCC(=O)O)[C@@H](C)O)[C@@H](C)CC)C(=O)N[C@@H](C)C(=O)N[C@@H](CCSC)C(=O)N[C@@H](CC(=O)O)C(=O)N[C@@H](CCCCN)C(=O)N[C@H](C(=O)N[C@@H](Cc1c[nH]cn1)C(=O)N[C@@H](CCC(N)=O)C(=O)N[C@@H](CCC(N)=O)C(=O)N[C@@H](CC(=O)O)C(=O)N[C@@H](Cc1ccccc1)C(=O)N[C@H](C(=O)N[C@@H](CC(N)=O)C(=O)N[C@@H](Cc1c[nH]c2ccccc12)C(=O)N[C@@H](CC(C)C)C(=O)N[C@@H](CC(C)C)C(=O)N[C@@H](C)C(=O)N[C@@H](CCC(N)=O)C(=O)N[C@@H](CCCCN)C(N)=O)C(C)C)[C@@H](C)CC | GIPR (Homo sapiens, UniProt P48546) | ligand displacement in cells, radioligand |  | pH 7.4 | IC50 | 2.34 nM
CC(C)[C@@H]1NC(=O)[C@H](CCCNC(=N)N)NC(=O)[C@H](Cc2ccc(O)cc2)NC(=O)[C@H](CO)NC(=O)[C@H](Cc2ccc(O)cc2)N(C)C(=O)[C@H](CC(N)=O)NC(=O)CNC(=O)[C@H](Cc2ccc(O)cc2)N(C)C(=O)[C@H](Cc2ccccc2)N(C)C(=O)[C@H](CC(=O)O)NC(=O)[C@H](Cc2ccc(O)cc2)NC(=O)[C@H](Cc2ccccc2)N(C)C(=O)[C@H](Cc2ccc(O)cc2)N(C)C(=O)[C@H](Cc2ccc(O)cc2)NC(=O)CSC[C@@H](C(N)=O)NC(=O)[C@@H]2CCCN2C1=O | gpmI | enzyme activity, inhibitor, luminescent coupled-enzyme ATP |  | 15 min, 37 °C | AC50 | 4.37 µM
CCCCCn1cc(C(=O)c2cccc3c2CC(C)(C)C3)c2ccccc21 | CNR1 (Homo sapiens, UniProt P21554, I267L/L193I/L359V) | Gαi1 engagement, agonist, BRET |  |  | EC50 | 27.5 nM
CN1C(=O)[C@H](Cc2ccc(O)cc2)NC(=O)CNC(=O)[C@H](Cc2ccc(O)cc2)NC(=O)[C@H](CCC(=O)O)NC(=O)[C@H](Cc2ccc(O)cc2)N(C)C(=O)[C@H](Cc2ccc(O)cc2)N(C)C(=O)[C@H](CCC(N)=O)NC(=O)[C@H](Cc2c[nH]c3ccccc23)NC(=O)[C@H](Cc2ccc(O)cc2)NC(=O)[C@@H](Cc2ccc(O)cc2)NC(=O)CSC[C@@H](C(N)=O)NC(=O)[C@H](CCCCN)NC(=O)[C@@H]1Cc1ccc(O)cc1 | ipgm-1 | enzyme activity, inhibitor, luminescent coupled-enzyme ATP |  |  | AC50 | 3.63 µM
CC(C)OC(=O)C(n1cccn1)n1cccn1.F[P-](F)(F)(F)(F)F.[Cu+].c1ccc(P(c2ccccc2)c2ccccc2)cc1 | LoVo | cell growth or viability |  | 3D culture | IC50 | 20400 nM
CCCC[C@H]1C(=O)N2CCC[C@H]2C(=O)N[C@H](C(N)=O)CSCC(=O)N[C@@H](Cc2ccc(O)cc2)C(=O)N(C)[C@@H](Cc2ccc(OC)cc2)C(=O)N[C@@H](CCCNC(=N)N)C(=O)N(C)[C@@H](Cc2ccccc2)C(=O)N[C@@H](CC(=O)O)C(=O)N(C)[C@@H](CO)C(=O)N(C)[C@@H](Cc2ccc(O)cc2)C(=O)N[C@@H](CCC(N)=O)C(=O)N[C@@H](CO)C(=O)N(C)[C@@H](CO)C(=O)N(C)[C@@H](Cc2ccc(OC)cc2)C(=O)N[C@@H](C(C)C)C(=O)N(C)[C@@H](Cc2ccc(O)cc2)C(=O)N1C | ipgm-1 | enzyme activity, inhibitor, luminescent coupled-enzyme ATP |  |  | AC50 | 6.17 µM
CC[C@H](C)[C@H](NC(C)=O)C(=O)N[C@@H](CC(N)=O)C(=O)N[C@@H](Cc1c[nH]c2ccccc12)C(=O)N[C@@H](Cc1c[nH]cn1)C(=O)N[C@@H](C)C(=O)N[C@H](C(=O)N[C@@H](C)C(=O)N[C@@H](Cc1c[nH]cn1)C(=O)N[C@@H](CCSC)C(=O)N[C@@H](C)C(=O)N[C@@H](CCCCN)C(=O)N[C@@H](CCCCN)C(=O)N[C@@H](CC(C)C)C(=O)N[C@@H](CC(C)C)C(N)=O)[C@@H](C)CC | human erythrocytes | binding, hemolysis-monitored titration |  | pH 7.0, added: Ni(II) | Kd | 12 µM
COc1ccc(C[C@H]2C(=O)N[C@@H](Cc3ccc(O)cc3)C(=O)N3CCC[C@H]3C(=O)NCC(=O)N[C@@H]([C@@H](C)O)C(=O)N[C@@H](C)C(=O)N[C@@H](CCC(N)=O)C(=O)N(C)[C@@H](Cc3ccc(O)cc3)C(=O)N[C@@H]([C@@H](C)O)C(=O)N[C@H](C(N)=O)CSCC(=O)N[C@H](Cc3ccc(O)cc3)C(=O)N[C@@H](Cc3c[nH]c4ccccc34)C(=O)N(C)[C@@H](Cc3ccc(O)cc3)C(=O)N[C@@H](CC(=O)O)C(=O)N(C)[C@@H](CO)C(=O)N(C)[C@@H](Cc3ccc(O)cc3)C(=O)N2C)cc1 | ipgm-1 | enzyme activity, inhibitor, luminescent coupled-enzyme ATP |  |  | AC50 | 34.7 µM
O=C(NCc1ccco1)C1CCN(S(=O)(=O)c2ccc(Cl)cc2)CC1 | Plasmodium falciparum | parasite growth | NF54 | 72 h | IC50 | 1970 ± 440 nM

Excerpt of the above:
Compound | target or system | assay | system | setting | quantity | value
CC[C@H](C)[C@H](NC(=O)[C@H](CO)NC(=O)[C@H](Cc1ccc(O)cc1)NC(=O)[C@H](CC(=O)O)NC(=O)[C@H](CO)NC(=O)[C@@H](NC(=O)[C@H](Cc1ccccc1)NC(=O)[C@@H](NC(=O)CNC(=O)[C@@H](N)CCC(=O)O)[C@@H](C)O)[C@@H](C)CC)C(=O)N[C@@H](C)C(=O)N[C@@H](CCSC)C(=O)N[C@@H](CC(=O)O)C(=O)N[C@@H](CCCCN)C(=O)N[C@H](C(=O)N[C@@H](Cc1c[nH]cn1)C(=O)N[C@@H](CCC(N)=O)C(=O)N[C@@H](CCC(N)=O)C(=O)N[C@@H](CC(=O)O)C(=O)N[C@@H](Cc1ccccc1)C(=O)N[C@H](C(=O)N[C@@H](CC(N)=O)C(=O)N[C@@H](Cc1c[nH]c2ccccc12)C(=O)N[C@@H](CC(C)C)C(=O)N[C@@H](CC(C)C)C(=O)N[C@@H](C)C(=O)N[C@@H](CCC(N)=O)C(=O)N[C@@H](CCCCN)C(N)=O)C(C)C)[C@@H](C)CC | GIPR (Homo sapiens, UniProt P48546) | ligand displacement in cells, radioligand |  | pH 7.4 | IC50 | 2.34 nM
CN1C(=O)[C@H](Cc2ccc(O)cc2)NC(=O)CNC(=O)[C@H](Cc2ccc(O)cc2)NC(=O)[C@H](CCC(=O)O)NC(=O)[C@H](Cc2ccc(O)cc2)N(C)C(=O)[C@H](Cc2ccc(O)cc2)N(C)C(=O)[C@H](CCC(N)=O)NC(=O)[C@H](Cc2c[nH]c3ccccc23)NC(=O)[C@H](Cc2ccc(O)cc2)NC(=O)[C@@H](Cc2ccc(O)cc2)NC(=O)CSC[C@@H](C(N)=O)NC(=O)[C@H](CCCCN)NC(=O)[C@@H]1Cc1ccc(O)cc1 | ipgm-1 | enzyme activity, inhibitor, luminescent coupled-enzyme ATP |  |  | AC50 | 3.63 µM
